Published values from different studies.
Compare with care: the assays were run in different laboratories. “And” joins repeats or separate records; there may be more than shown. ± marks the error that the study gave.

CC(C)C[C@H](NC(=O)[C@H](CCC(=O)O)NC(=O)[C@@H](N)Cc1ccccc1)C(=O)N[C@@H](CCC(=O)O)C(=O)N[C@@H](CCCNC(=N)N)C(=O)N[C@@H](CCCNC(=N)N)C(=O)N[C@@H](Cc1ccccc1)C(=O)N[C@@H](CCCCN)C(=O)N[C@@H](CCC(N)=O)C(=O)N[C@@H](CCC(N)=O)C(=O)O
viability (HCT-116; CCK-8; 20 µM; baseline: vehicle): 105% and 95.3%

O=C(C[Se]C(=O)c1cc2ccccc2[nH]1)Nc1cccc(C(F)(F)F)c1
CC50 (NCI60 colon subpanel; NCI60 five-dose screen): 16.2 µM

CC(C)[C@H](NC(=O)[C@H](CCCNC(=N)N)NC(=O)[C@@H]1CCCN1C(=O)[C@@H](NC(=O)[C@H](C)NC(=O)[C@H](Cc1ccc(O)cc1)NC(=O)[C@H](CCC(N)=O)NC(=O)[C@H](CCCCN)NC(=O)[C@H](CCCNC(=N)N)NC(=O)[C@@H]1CCCN1C(=O)[C@H](CCC(=O)O)NC(=O)[C@@H](NC(=O)[C@H](C)N)[C@@H](C)O)[C@@H](C)O)C(=O)N[C@@H](Cc1ccccc1)C(=O)N[C@@H](Cc1c[nH]c2ccccc12)C(=O)N[C@H](C(=O)N[C@@H](CC(=O)O)C(=O)N[C@@H](C)C(=O)N1CCC[C@H]1C(=O)NCC(=O)NCCOCCOCCOCCOCCOCCOCCOCCOCCOCCOCCOCCOCCC(=O)N[C@@H](CS)C(N)=O)[C@@H](C)O
selectivity ratio (MiaPaCa pancreatic cancer; cell binding, phage binding, item: output/input phage; 10 min, 37 °C; baseline: control phage): 3.7 ± 1.9

Cc1cc(Oc2nc(N3CC[C@@H](c4ccncc4)C3)ncc2F)[nH]n1
IC50 (MIA PaCa-2; cell proliferation): 37.2 µM

CC(C)(C)C(=O)OCOP(=O)(OCOC(=O)C(C)(C)C)C1CCCN(O)C1=O (stereo not drawn)
TGI (NCI-H522): 1.83 µM

CC(C)CC(O)(CC(C)C)c1cn(C(=O)N2CCCC2)nn1
protein level (mouse T-cells; SILAC proteomics, item: Tpi1; 1 nM, 6 h, single peptides, unit not given; baseline: DMSO): 1.06 and 1.2

O=C(C[Se]C(=O)c1ccco1)Nc1cccc(C(F)(F)F)c1
CC50 (NCI60 CNS subpanel; NCI60 five-dose screen): 24.3 µM

CCCNC(=O)[C@H]1O[C@@H]1C(=O)N[C@H](C(=O)N1CCC[C@H]1C(=O)OCC1=C2C(C)=CC(C)=[N+]2[B-](C)(C)n2c(C)cc(C)c21)[C@@H](C)CC
phototoxicity index (MDA-MB-231; 4 h; baseline: dark EC50 over light EC50): > 40

O=C(C[Se]C(=O)c1cc2ccccc2o1)Nc1cccc(C(F)(F)F)c1
CC50 (NCI60 breast subpanel; NCI60 five-dose screen): 11.3 µM

COc1ccc(NC(=O)c2ccc3[nH]c(-c4ccc(N(C)C)cc4)nc3c2)cn1
PI-positive cells (HCT116; IncuCyte; concentration not given, 24 (unit not given)): 108 count and 167 count and 124 count

CC(=O)NCSC[C@H](NC(=O)[C@@H]1CCCN1C(=O)[C@H](C)NC(=O)[C@@H](NC(=O)CNC(=O)[C@@H](NC(=O)[C@H](Cc1c[nH]c2ccccc12)NC(=O)[C@H](C)NC(=O)CNC(=O)[C@H](CO)NC(=O)[C@H](C)NC(=O)[C@@H]1CCCN1C(=O)[C@H](Cc1c[nH]c2ccccc12)NC(=O)[C@H](C)NC(=O)[C@H](C)NC(=O)[C@@H](N)Cc1ccc(O)cc1)[C@@H](C)O)[C@@H](C)O)C(=O)N[C@@H](CO)C(=O)N[C@@H](C)C(=O)NCC(=O)N[C@H](C(=O)NCCOCCOCCOCCOCCOCCOCCOCCOCCOCCOCCOCCOCCC(=O)N[C@@H](CS)C(N)=O)[C@@H](C)O
selectivity ratio (H1437 lung adenocarcinoma; cell binding, phage binding, item: output/input phage; 10 min, 37 °C; baseline: control phage): 3.6 ± 1.3

CSCC[C@H](NC(=O)[C@H](CC(C)C)NC(=O)[C@H](CCC(N)=O)NC(=O)[C@H](C)NC(=O)[C@H](Cc1c[nH]c2ccccc12)NC(=O)[C@H](Cc1ccc(O)cc1)NC(=O)[C@H](CCC(=O)O)NC(=O)[C@H](CC(C)C)NC(=O)[C@H](Cc1ccccc1)NC(=O)[C@@H](NC(=O)[C@H](CC(C)C)NC(=O)[C@H](CCCCN)NC(C)=O)[C@@H](C)O)C(=O)N[C@@H](CCC(N)=O)C(=O)N[C@@H](CCCCN)C(=O)NCCCCCC(=O)N[C@@H](CCCCN)C(=O)N[C@@H](CC(C)C)C(=O)N[C@H](C(=O)N[C@@H](Cc1ccccc1)C(=O)N[C@@H](CC(C)C)C(=O)N[C@@]1(C)CCCC=CCCC[C@@](C)(C(=O)N[C@@H](CC(C)C)C(=O)N[C@@H](CCSC)C(=O)N[C@@H](CCC(N)=O)C(=O)N[C@@H](CCCCN)C(N)=O)NC(=O)[C@H](C)NC(=O)[C@H](Cc2c[nH]c3ccccc23)NC(=O)[C@H](Cc2ccc(O)cc2)NC1=O)[C@@H](C)O
inhibition (U-251; cell growth, CCK-8; 16 µM): inhibited

Cc1c(Cl)cccc1Nc1ccccc1C(=O)[Se]CC(=O)Nc1cccc(C(F)(F)F)c1
CC50 (NCI60 CNS subpanel; NCI60 five-dose screen): 7.25 µM

Cc1c(Cl)c(=O)oc2cc(OCCCCCC[Se]C#N)ccc12
GI50 (WiDr, multidrug-resistant; sulforhodamine B): 11 µM

COc1ccccc1-c1ccncc1C(=O)Nc1nnc(OCc2ccc(Cl)cc2)s1
colony survival (HCT-116 BRCA2 wild-type; 4 µM; baseline: untreated): 97.3%

CC(C)NCCCn1c(Sc2cc3c(cc2I)OCO3)nc2c(N)ncnc21
inflection point of cell death (MDA-MB-468; annexin V staining and cleaved PARP): 2 to 2.5 µM

CCc1nc2ccc(C(=O)NCCCn3ccnc3)cn2c1N(C)Cc1ccc(N(C)C)cc1
transendothelial electrical resistance (bEnd.5 monolayer; in vitro blood-brain barrier model; IC50 and 1.5 x IC50, 48 h; baseline: untreated): increased

O=[N+]([O-])c1ccc(-n2nc(-c3ccccc3)cc2-c2ccc(F)cc2)c([N+](=O)[O-])c1
ROS reduction (Neuro2a; H2DCF-DA flow cytometry; 15 µM, 48 h; baseline: untreated uninfected cells): ~27%

A few entries again:
O=C(C[Se]C(=O)c1ccco1)Nc1cccc(C(F)(F)F)c1
CC50 (NCI60 CNS subpanel; NCI60 five-dose screen): 24.3 µM
